# Assay results collected from several papers.
# Protocols differ between the studies behind these lines. Numbers after ± are the reported error.
Compound,assay,test system,conditions,remaining compound
CC(C)OC(=O)[C@H](CCC(=O)C=[N+]=[N-])NC(=O)OC(OC(=O)C(C)(C)C)c1ccccc1 (stereo partly shown),,swine plasma,"10 µM, 60 min, 37 °C",83 ± 1%
C/C=C(/C)C(=O)O[C@H]1C(C)=C[C@]23C(=O)[C@@H](C=C(CO)[C@@H](O)[C@]12O)[C@H]1[C@@H](C[C@H]3C)C1(C)C,,phosphate buffer 30% acetonitrile,"100 µM, 2 h, pH 7.4, 37 °C",~63%
Fc1cc(Cl)c(Nc2ccc(F)cc2Cc2nnn[nH]2)c(Cl)c1,glucuronidation,human liver microsomes,"30 min, added: UDPGA",99 ± 3%
CCc1cn([C@@H]2O[C@H](CO)[C@@H](O)[C@H]2O)c2ncnc(C)c12,,mouse liver microsomes,"60 min, added: NADPH",94%
O=C(CCc1ccccc1)N[C@H]1CNC1=O,,"phosphate buffer, 10% MeCN","1 µM, 24 h, pH 5.0, 37 °C",97%
O=S(=O)(O)Cc1ccccc1Nc1c(Cl)cccc1Cl,glucuronidation,human liver microsomes,"30 min, added: UDPGA",111 ± 7.6%
CCCCCCCCC(=O)N[C@H]1CNC1=O,,"phosphate buffer, 10% MeCN","1 µM, 24 h, pH 5.0, 37 °C",98%
CN1C(=O)N[C@H]2[C@@H]3NC(=O)c4ccc(C(F)(F)F)n4[C@@H]3C[C@]21O,LC-MS,human AB serum,"50 µM, 24 h, 37 °C",65 to 90%
CC(C)OC(=O)[C@H](CCC(=O)C=[N+]=[N-])NC(=O)OCOC(=O)C(C)(C)C,,mouse plasma,"10 µM, 60 min, 37 °C",0%
O=C(O)Cc1cc(F)ccc1Nc1c(Cl)cc(F)cc1Cl,glucuronidation,human liver microsomes,"30 min, added: UDPGA",57 ± 3.2%

# A few entries again:
Compound,assay,test system,conditions,remaining compound
CC(C)OC(=O)[C@H](CCC(=O)C=[N+]=[N-])NC(=O)OC(OC(=O)C(C)(C)C)c1ccccc1 (stereo partly shown),,swine plasma,"10 µM, 60 min, 37 °C",83 ± 1%
